Published values pooled from the literature.
Each line is one published result; not all experiments were run side by side. “And” joins repeats or separate records; there may be more than shown. Numbers after ± are the reported error.

SMILES | cell line | assay | setting | IC50
CC(C)C12OC1C1OC13C1(C)CCC4=C(COC4=O)C1CC1OC13C2OC(=O)CCCOC1OC(CO)C(O)C(O)C1O (centres unmarked) | SNU-475 | cell growth or viability, XTT | 47 h | 4.6 µM
CC(C)C[C@H](NC(=O)[C@H](Cc1ccccc1)NC(=O)[C@H](C)NC(=O)[C@H](CS)NC(=O)CNC(=O)[C@@H](N)CO)C(=O)N[C@@H](CO)C(=O)N[C@H](C(=O)N[C@@H](CCCCN)C(=O)N[C@@H](CCCCN)C(=O)N[C@@H](CCC(N)=O)C(=O)N[C@@H](Cc1ccccc1)C(=O)N[C@@H](CCC(=O)O)C(=O)N[C@@H](CCC(=O)O)C(=O)N[C@@H](CC(C)C)C(=O)N[C@H](C(=O)N[C@@H](CC(C)C)C(=O)NCC(=O)N[C@@H](CCC(=O)O)C(=O)N[C@@H](Cc1ccccc1)C(=O)N[C@@H](CC(C)C)C(=O)N[C@@H](CCCCN)C(=O)N[C@@H](CC(C)C)C(=O)N[C@@H](CC(=O)O)C(=O)N[C@@H](CCCNC(=N)N)C(=O)N[C@H](CCCNC(=N)N)C(=O)N[C@@H](CCCNC(=N)N)C(=O)N[C@@H](CCCCN)C(=O)O)[C@@H](C)O)C(C)C | A549 SMAC-expressing | cell death, annexin V/PI flow cytometry | 24 h, serum-free medium | 12 µM
Oc1cccc2cccnc12.Oc1cccc2cccnc12.[Cl][Fe]([Cl])[Cl] | A2780 | viability, MTT | 96 h | 2.2 ± 0.8 µM
CC(C)C12OC1C1OC13C1(C)CCC4=C(COC4=O)C1CC1OC13C2OC(=O)CCC(=O)OC1OC(CO)C(O)C(O)C1O (centres unmarked) | NCI-H1299 | cell growth or viability, XTT | 47 h | 6.4 µM
CC[C@H](C)[C@H](NC(=O)[C@H](C)NC(=O)[C@H](Cc1c[nH]cn1)NC(=O)[C@H](CC(C)C)NC(=O)CNC(=O)[C@H](Cc1ccccc1)NC(=O)CNC(=O)[C@H](Cc1ccc(O)cc1)NC(=O)CNC(=O)[C@H](CCCCN)NC(=O)[C@@H](NC(=O)[C@H](Cc1ccccc1)NC(=O)[C@@H](NC(=O)[C@H](CC(=O)O)NC(=O)[C@H](CCCNC(=N)N)NC(=O)[C@H](C)NC(=O)[C@H](CO)NC(=O)[C@H](CCCCN)NC(=O)CNC(=O)[C@H](CC(C)C)NC(=O)[C@H](CC(=O)O)NC(=O)[C@H](C)NC(=O)[C@H](Cc1ccc(O)cc1)NC(=O)[C@@H](NC(=O)[C@@H]1CCCN1C(=O)[C@@H]1CCCN1C(=O)[C@@H](NC(=O)[C@H](C)NC(=O)[C@@H](N)CCSC)C(C)C)[C@@H](C)O)C(C)C)[C@@H](C)O)C(=O)N[C@@H](Cc1ccc(O)cc1)C(=O)N1CCC[C@H]1C(=O)N[C@@H](CCCNC(=N)N)C(=O)N[C@@H](Cc1c[nH]cn1)C(=O)O | MEC1 | cell growth or viability, flow cytometry | 90 min | > 16.7 µM
COc1ccccc1-c1ccncc1C(=O)Nc1nnc(OCc2ccc(Cl)cc2)s1 | DLD-1 BRCA2-knockout | colony survival | – | ~1 µM
CCCCCCCC(=O)NCCCC[C@H](NC(=O)CCCCCCC)C(=O)N[C@@H](CCCCNC(=O)CCCCCCC)C(=O)NCC(=O)NCC(=O)NCC(=O)N[C@@H](CS)C(=O)N[C@@H](CCCNC(=N)N)C(=O)N[C@@H](CCCCN)C(=O)N1CCC[C@H]1C(=O)N[C@@H](CS)C(=O)N[C@@H](CCCNC(=N)N)C(=O)N[C@@H](CCCCN)C(=O)N1CCC[C@H]1C(=O)N[C@@H](CS)C(=O)N[C@@H](CCCNC(=N)N)C(=O)N[C@@H](CCCCN)C(=O)N1CCC[C@H]1C(N)=O | HEK293 | cell growth or viability, MTT | 24 h | 168 µM
Cc1ccc(C(C)C)cc1.F[P-](F)(F)(F)(F)F.[Cl][Os+]1[N]2C=CC=c3ccc4c(c32)[N]1C=CC=4 | M109 | cell growth or viability, MTT | – | > 100 µM
CC(=O)N[C@H](C(=O)N[C@@H](CCCNC(=N)N)C(=O)N[C@@H](CCCCN)C(=O)N[C@@H](CCCNC(=N)N)C(=O)N[C@]1(C)CCCC=CCCC[C@@](C)(C(=O)N[C@@H](CC(C)C)C(=O)N[C@@H](CC(C)C)C(=O)N[C@@H](CCC(N)=O)C(=O)N[C@@H](CCC(=O)O)C(=O)N[C@@H](CCCNC(=N)N)C(=O)N[C@@H](CCC(=O)O)C(=O)N[C@@H](CC(C)C)C(=O)N[C@H](C(=O)N[C@@H](CCC(=O)O)C(N)=O)C(C)C)NC(=O)[C@H](CCCNC(=N)N)NC(=O)[C@H](CC(C)C)NC1=O)C(C)C | A-431 (wild-type EGFR) | cell viability | 18 h | ~91 µM
Cc1cc(Nc2nc(C[C@@]3(C(=O)O)CCN(Cc4cccc(Cl)c4F)[C@H](C)C3)cc(C)c2F)[nH]n1 | BT-20 | cell growth or viability, ATP luminescence | 5 days | 0.038 µM
C#CCCCC[C@H](C)C[C@@H](C)C(=O)N[C@@H](C)C(=O)N1CCC[C@H]1C(=O)N[C@H](C(=O)N[C@H](C(=O)N[C@H](C(=O)N[C@@H](Cc1ccccc1)C(=O)N1CCC[C@H]1C(=O)N1CCC[C@H]1C(C)=O)C(C)C)C(C)C)C(C)C | HEK293 | cell growth or viability, SRB | – | 352 µM and 282 µM and 349 µM
CCC1=C(C)C2=C(c3ccc(P(=NC4=[O+][Ru-]([Cl])[n+]5ccccc54)(c4ccccc4)c4ccccc4)cc3)c3c(C)c(CC)c(C)n3[B-](C)(C)[N+]2=C1C.Cc1ccc(C(C)C)cc1.Cl | IMR-90 | cell growth or viability, MTT | – | 60.3 µM
CC1CCC2C(C)C(OC(=O)CCC(=O)N3CCN(CC(=O)Nc4ccc([N+](=O)[O-])c(C(F)(F)F)c4)CC3)OC3OC4(C)CCC1C32OO4 (centres unmarked) | A2780 | cell growth or viability, CCK-8 | – | 0.78 µM
CCCCCCCC(=O)NCCCC[C@H](NC(=O)CCCCCCC)C(=O)N[C@@H](CCCCNC(=O)CCCCCCC)C(=O)NCC(=O)NCC(=O)NCC(=O)N[C@@H](CS)C(=O)N[C@@H](CCCNC(=N)N)C(=O)N[C@@H](CCCCN)C(=O)N1CCC[C@H]1C(=O)N[C@@H](CS)C(=O)N[C@@H](CCCNC(=N)N)C(=O)N[C@@H](CCCCN)C(=O)N1CCC[C@H]1C(=O)N[C@@H](CS)C(=O)N[C@@H](CCCNC(=N)N)C(=O)N[C@@H](CCCCN)C(=O)N1CCC[C@H]1C(=O)N[C@@H](CS)C(=O)N[C@@H](CCCNC(=N)N)C(=O)N[C@@H](CCCCN)C(=O)N1CCC[C@H]1C(N)=O | HCE-T | cytotoxicity, MTT | 24 h | 122 µM
CC(=O)N[C@H](C(=O)N[C@@H](CCCNC(=N)N)C(=O)N[C@@H](CCCCN)C(=O)N[C@@H](CCCNC(=N)N)C(=O)N[C@]1(C)CCCCCCC=CCCC[C@@](C)(C(=O)N[C@@H](CCCNC(=N)N)C(=O)N[C@@H](CCC(=O)O)C(=O)N[C@@H](CC(C)C)C(=O)N[C@H](C(=O)N[C@@H](CCC(=O)O)C(N)=O)C(C)C)NC(=O)[C@H](CCC(N)=O)NC(=O)[C@H](C)NC(=O)[C@H](C)NC(=O)[C@H](CCCNC(=N)N)NC(=O)[C@H](CCCNC(=N)N)NC(=O)[C@H](C)NC1=O)C(C)C | A-431 | cell viability | 18 h, serum-free | 15.2 µM
CC[C@H](C)[C@H](NC(=O)[C@H](C)NC(=O)[C@@H](N)Cc1c[nH]cn1)C(=O)N[C@@H](Cc1ccc(O)cc1)C(=O)N1CCC[C@H]1C(=O)N[C@@H](CCCNC(=N)N)C(=O)N[C@@H](Cc1c[nH]cn1)C(=O)N[C@@H](CCCCN)C(=O)N[C@@H](CCCCN)C(=O)N[C@@H](CC(C)C)C(=O)N[C@@H](CCC(=O)O)C(=O)N[C@H](C(=O)N[C@@H](C)C(=O)N[C@H](C(=O)N[C@@H](CC(N)=O)C(=O)N[C@@H](CC(C)C)C(=O)N[C@@H](C)C(=O)N[C@@H](Cc1c[nH]c2ccccc12)C(=O)N[C@H](C(=O)N[C@@H](C)C(=O)NCC(=O)N[C@@H](CC(N)=O)C(=O)N[C@@H](CO)C(=O)N[C@@H](CC(N)=O)C(=O)O)[C@@H](C)O)C(C)C)[C@@H](C)O | MEC1 | cell growth or viability, flow cytometry | 90 min | > 15 µM
Cc1cc(Oc2nc(N3CC[C@@H](c4ccncc4)C3)ncc2F)[nH]n1 | Breast cancer cell lines | cell proliferation | – | 50.1 µM
CC[C@H](C)[C@H](NC(=O)[C@H](CCCCN)NC(=O)[C@@H](NC(=O)[C@H](CCC(N)=O)NC(=O)[C@H](CCCNC(=N)N)NC(=O)[C@H](CC(C)C)NC(=O)CNC(=O)[C@H](Cc1ccccc1)NC(=O)CNC(=O)[C@H](Cc1ccc(O)cc1)NC(=O)CNC(=O)[C@H](CCCCN)NC(=O)[C@@H](NC(=O)[C@H](Cc1ccccc1)NC(=O)[C@@H](NC(=O)[C@H](CC(=O)O)NC(=O)[C@H](CCCNC(=N)N)NC(=O)[C@H](C)NC(=O)[C@H](CO)NC(=O)[C@H](CCCCN)NC(=O)CN)C(C)C)[C@@H](C)O)[C@@H](C)CC)C(=O)N[C@@H](Cc1c[nH]c2ccccc12)C(=O)N[C@@H](Cc1ccccc1)C(=O)N[C@@H](CCC(N)=O)C(=O)N[C@@H](CC(N)=O)C(=O)N[C@@H](CCCNC(=N)N)C(=O)N[C@@H](CCCNC(=N)N)C(=O)N[C@@H](CCSC)C(=O)N[C@@H](CCCCN)C(=O)N[C@@H](Cc1c[nH]c2ccccc12)C(=O)N[C@@H](CCCCN)C(=O)N[C@@H](CCCCN)C(=O)O | MEC1 | cell growth or viability, flow cytometry | 90 min | 2.5 µM
CC(=O)N[C@H](C(=O)N[C@@H](CCCNC(=N)N)C(=O)N[C@@H](CCCCN)C(=O)N[C@@H](CCCNC(=N)N)C(=O)N[C@H](C(=O)N[C@@H](CC(C)C)C(=O)N[C@@H](CCCNC(=N)N)C(=O)N[C@]1(C)CCCC=CCCC[C@@](C)(C(=O)N[C@@H](CCC(=O)O)C(=O)N[C@@H](CCCNC(=N)N)C(=O)N[C@@H](CCC(=O)O)C(=O)N[C@@H](CC(C)C)C(=O)N[C@H](C(=O)N[C@@H](CCC(=O)O)C(N)=O)C(C)C)NC(=O)[C@H](CC(C)C)NC(=O)[C@H](CC(C)C)NC1=O)[C@@H](C)O)C(C)C | A-431 (wild-type EGFR) | cell viability | 18 h | > 100 µM
O=C(C[Se]C(=O)c1cccs1)Nc1cccc(C(F)(F)F)c1 | LNCaP | cell growth or viability, MTS | 48 h | 10.5 µM

Excerpt of the above:
SMILES | cell line | assay | setting | IC50
Cc1cc(Nc2nc(C[C@@]3(C(=O)O)CCN(Cc4cccc(Cl)c4F)[C@H](C)C3)cc(C)c2F)[nH]n1 | BT-20 | cell growth or viability, ATP luminescence | 5 days | 0.038 µM
